Experimental data of several laboratories.
Numbered parts are unrelated; each lists some results of a single study. Several values in a cell are separate wells, animals, samples, runs or records.
UniProt P42336, sequence (whole entry, unmodified, looked up): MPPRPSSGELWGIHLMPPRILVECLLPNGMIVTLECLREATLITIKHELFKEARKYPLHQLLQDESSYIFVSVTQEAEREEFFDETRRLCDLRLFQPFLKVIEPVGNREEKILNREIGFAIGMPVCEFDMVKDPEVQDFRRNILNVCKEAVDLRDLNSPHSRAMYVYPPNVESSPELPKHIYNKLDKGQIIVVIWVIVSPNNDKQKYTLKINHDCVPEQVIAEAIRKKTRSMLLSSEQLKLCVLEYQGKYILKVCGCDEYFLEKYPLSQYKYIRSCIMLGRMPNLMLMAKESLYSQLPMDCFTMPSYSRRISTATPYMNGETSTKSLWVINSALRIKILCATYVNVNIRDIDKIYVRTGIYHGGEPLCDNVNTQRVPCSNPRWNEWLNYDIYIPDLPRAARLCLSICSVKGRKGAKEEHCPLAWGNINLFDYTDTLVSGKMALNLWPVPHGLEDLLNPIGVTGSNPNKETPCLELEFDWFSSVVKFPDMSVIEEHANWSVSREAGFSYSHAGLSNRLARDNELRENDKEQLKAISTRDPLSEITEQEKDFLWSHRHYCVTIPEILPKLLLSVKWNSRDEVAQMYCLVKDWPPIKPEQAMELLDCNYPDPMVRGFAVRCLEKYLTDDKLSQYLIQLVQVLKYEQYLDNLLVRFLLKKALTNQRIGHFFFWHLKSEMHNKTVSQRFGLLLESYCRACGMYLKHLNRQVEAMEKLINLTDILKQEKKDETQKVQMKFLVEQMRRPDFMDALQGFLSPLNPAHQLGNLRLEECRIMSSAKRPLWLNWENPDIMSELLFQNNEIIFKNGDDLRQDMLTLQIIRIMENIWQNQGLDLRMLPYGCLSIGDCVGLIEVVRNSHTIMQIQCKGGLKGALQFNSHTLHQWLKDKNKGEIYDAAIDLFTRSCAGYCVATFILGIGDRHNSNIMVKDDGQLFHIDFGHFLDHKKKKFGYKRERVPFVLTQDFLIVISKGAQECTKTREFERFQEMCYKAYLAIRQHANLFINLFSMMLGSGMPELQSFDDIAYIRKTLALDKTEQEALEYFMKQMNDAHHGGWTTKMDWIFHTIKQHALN
UniProt P08912, sequence (whole entry, looked up): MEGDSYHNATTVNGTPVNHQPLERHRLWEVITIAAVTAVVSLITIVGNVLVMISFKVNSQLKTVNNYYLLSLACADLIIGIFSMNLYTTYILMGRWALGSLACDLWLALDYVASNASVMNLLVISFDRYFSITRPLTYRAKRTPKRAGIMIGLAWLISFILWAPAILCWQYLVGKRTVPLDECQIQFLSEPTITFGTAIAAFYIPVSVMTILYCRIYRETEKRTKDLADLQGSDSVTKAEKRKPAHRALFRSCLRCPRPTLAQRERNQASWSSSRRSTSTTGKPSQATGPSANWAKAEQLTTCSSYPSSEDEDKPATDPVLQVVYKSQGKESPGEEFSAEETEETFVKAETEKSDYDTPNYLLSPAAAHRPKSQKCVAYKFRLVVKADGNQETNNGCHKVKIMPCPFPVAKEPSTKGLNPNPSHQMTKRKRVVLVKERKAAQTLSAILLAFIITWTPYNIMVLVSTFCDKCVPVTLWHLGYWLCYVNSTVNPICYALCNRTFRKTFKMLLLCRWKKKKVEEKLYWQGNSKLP
UniProt Q99720, sequence (whole entry, looked up): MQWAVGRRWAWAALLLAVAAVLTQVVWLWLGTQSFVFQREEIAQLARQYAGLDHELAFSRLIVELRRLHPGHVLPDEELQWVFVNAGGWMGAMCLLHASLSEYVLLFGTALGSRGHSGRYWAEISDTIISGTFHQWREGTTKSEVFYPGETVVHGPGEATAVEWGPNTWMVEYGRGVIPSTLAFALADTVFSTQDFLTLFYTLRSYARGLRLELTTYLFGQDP

Set 1
Target: DNA polymerase theta, ATPase domain (POLQ, Homo sapiens, UniProt O75417)
UniProt O75417, sequence (whole entry, unmodified, looked up): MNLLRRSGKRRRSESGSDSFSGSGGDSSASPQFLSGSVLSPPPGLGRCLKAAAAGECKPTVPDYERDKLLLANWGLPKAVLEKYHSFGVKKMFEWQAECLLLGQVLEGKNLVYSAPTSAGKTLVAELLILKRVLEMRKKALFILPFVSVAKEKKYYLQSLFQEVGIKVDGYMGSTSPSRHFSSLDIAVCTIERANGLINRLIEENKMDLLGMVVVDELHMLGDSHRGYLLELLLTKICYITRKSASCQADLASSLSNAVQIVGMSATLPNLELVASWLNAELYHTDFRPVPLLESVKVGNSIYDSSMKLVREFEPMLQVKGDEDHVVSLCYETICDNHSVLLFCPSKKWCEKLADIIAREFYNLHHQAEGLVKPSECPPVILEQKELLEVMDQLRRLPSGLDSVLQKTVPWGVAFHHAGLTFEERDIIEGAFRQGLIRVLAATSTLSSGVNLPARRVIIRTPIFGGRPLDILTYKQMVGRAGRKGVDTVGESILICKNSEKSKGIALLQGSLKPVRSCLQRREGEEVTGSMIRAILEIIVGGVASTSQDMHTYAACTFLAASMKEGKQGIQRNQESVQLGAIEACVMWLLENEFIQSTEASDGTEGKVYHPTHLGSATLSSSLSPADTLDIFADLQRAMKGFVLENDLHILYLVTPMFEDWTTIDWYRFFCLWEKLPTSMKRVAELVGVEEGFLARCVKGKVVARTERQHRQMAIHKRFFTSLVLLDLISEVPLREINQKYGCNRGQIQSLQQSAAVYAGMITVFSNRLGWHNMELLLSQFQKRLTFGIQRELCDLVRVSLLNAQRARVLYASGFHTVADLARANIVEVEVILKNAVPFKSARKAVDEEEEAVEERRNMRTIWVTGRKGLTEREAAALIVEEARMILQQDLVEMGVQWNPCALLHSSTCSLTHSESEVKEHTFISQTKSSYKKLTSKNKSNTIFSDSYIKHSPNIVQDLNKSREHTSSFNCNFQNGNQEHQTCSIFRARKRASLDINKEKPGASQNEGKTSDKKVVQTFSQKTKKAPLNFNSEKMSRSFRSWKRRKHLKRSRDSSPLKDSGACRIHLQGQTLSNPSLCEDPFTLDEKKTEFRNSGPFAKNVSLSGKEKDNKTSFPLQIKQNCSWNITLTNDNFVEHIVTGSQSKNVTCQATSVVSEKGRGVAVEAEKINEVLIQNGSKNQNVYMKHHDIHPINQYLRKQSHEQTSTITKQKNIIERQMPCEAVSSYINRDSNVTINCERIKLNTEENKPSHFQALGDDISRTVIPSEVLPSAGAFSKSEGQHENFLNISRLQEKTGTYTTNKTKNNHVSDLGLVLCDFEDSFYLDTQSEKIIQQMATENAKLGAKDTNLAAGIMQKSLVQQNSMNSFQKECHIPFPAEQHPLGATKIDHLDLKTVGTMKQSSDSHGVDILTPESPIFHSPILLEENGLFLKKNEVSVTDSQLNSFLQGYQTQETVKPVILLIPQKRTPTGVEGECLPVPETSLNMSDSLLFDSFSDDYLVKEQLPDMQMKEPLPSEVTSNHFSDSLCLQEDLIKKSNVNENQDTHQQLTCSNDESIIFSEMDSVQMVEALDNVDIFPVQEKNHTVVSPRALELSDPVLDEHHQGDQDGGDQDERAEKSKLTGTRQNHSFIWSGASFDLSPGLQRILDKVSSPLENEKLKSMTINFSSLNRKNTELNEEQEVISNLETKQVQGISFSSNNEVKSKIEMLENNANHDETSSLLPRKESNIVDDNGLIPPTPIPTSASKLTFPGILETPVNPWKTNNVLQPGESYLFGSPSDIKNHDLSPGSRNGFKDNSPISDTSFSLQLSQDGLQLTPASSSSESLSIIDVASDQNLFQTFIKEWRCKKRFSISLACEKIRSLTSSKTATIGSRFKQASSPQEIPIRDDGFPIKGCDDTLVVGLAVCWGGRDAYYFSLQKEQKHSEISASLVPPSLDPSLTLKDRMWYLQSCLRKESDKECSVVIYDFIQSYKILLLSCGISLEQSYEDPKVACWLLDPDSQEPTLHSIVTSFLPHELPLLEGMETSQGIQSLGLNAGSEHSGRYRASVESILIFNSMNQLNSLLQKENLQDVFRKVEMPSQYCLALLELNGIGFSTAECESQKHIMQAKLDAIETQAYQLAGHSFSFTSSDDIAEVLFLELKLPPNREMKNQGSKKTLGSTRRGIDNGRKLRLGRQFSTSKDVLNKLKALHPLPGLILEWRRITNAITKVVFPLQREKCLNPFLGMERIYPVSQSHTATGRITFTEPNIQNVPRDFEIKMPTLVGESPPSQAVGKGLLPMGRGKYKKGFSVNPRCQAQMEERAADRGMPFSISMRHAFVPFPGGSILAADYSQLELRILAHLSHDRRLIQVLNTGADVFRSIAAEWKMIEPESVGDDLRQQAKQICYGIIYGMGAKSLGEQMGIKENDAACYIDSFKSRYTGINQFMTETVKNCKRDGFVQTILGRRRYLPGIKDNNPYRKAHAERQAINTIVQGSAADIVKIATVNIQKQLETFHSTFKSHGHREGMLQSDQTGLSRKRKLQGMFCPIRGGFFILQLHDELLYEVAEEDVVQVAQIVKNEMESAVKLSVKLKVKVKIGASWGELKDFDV
Effect on: enzyme activity
Action: inhibitor
Tested at: 77 µM
Reference: untreated
| Structure (SMILES) | remaining activity |
| --- | --- |
| Cc1cnc(Nc2ccc(OCCN3CCCC3)cc2)nc1Nc1cccc(S(=O)(=O)NC(C)(C)C)c1 | 97.9% |
| C[C@H]1[C@H](C)CC[C@]2(C(=O)O[C@@H]3O[C@H](CO[C@@H]4O[C@H](CO)[C@@H](O[C@@H]5O[C@H](C)[C@H](O)[C@@H](O)[C@H]5O)[C@H](O)[C@H]4O)[C@@H](O)[C@H](O)[C@H]3O)CC[C@]3(C)C(=CC[C@@H]4[C@@]5(C)C[C@@H](O)[C@H](O)[C@@](C)(CO)[C@@H]5CC[C@]43C)[C@H]12 | 106% |
| CNC(=O)c1c(F)cccc1Nc1nc(Nc2cc3c(ccn3C(=O)CN(C)C)cc2OC)nc2[nH]ccc12 | 95.3% |
| CO[C@H]1C[C@H](O[C@H]2[C@H](C)[C@@H](O[C@@H]3O[C@H](C)C[C@H](N(C)C)[C@H]3OC(C)=O)[C@@H](C)C[C@@]3(CO3)C(=O)[C@H](C)[C@@H](OC(C)=O)[C@@H](C)[C@@H](C)OC(=O)[C@@H]2C)O[C@@H](C)[C@@H]1OC(C)=O | 98.5% |
| COc1cc(CCC(C)=O)ccc1O | 101% |
| Cc1c(NC(=O)OC[C@@H]2COCCN2)cn2ncnc(Nc3ccc4c(cnn4Cc4cccc(F)c4)c3)c12 | 109% |
| C[C@]12CCC(=O)C=C1CC[C@@H]1[C@@H]2[C@@H](O)C[C@@]2(C)[C@H]1CC[C@]2(O)C(=O)CO | 85.2% and 100% |
| O=C(Cc1ccc(-c2ccc(OCCN3CCOCC3)cc2)cn1)NCc1ccccc1 | 101% |
| CS(=O)(=O)c1ccc([C@@H](O)[C@@H](CO)NC(=O)C(Cl)Cl)cc1 | 98.1% and 101% |
| C[C@H](CCC(=O)O)[C@H]1CC[C@H]2[C@@H]3[C@H](O)C[C@@H]4C[C@H](O)CC[C@]4(C)[C@H]3CC[C@]12C | 85% and 97.6% |

Set 2
Structure (SMILES): C=CC(=O)N1CCC([C@@H]2CCNc3c(C(N)=O)c(-c4ccc(Oc5ccccc5)cc4)nn32)CC1
Tested at: 1 µM
| target | effect on | action | inhibition [%] |
| --- | --- | --- | --- |
| CDKL1 (Homo sapiens, UniProt Q00532) | enzyme activity | – | 40 |
| EPHA3 (Homo sapiens, UniProt P29320) | cell-free assay | – | 0 |
| TIE1 (Homo sapiens, UniProt P35590) | cell-free assay | – | 13 |
| FLT3 (Homo sapiens, UniProt P36888) | enzyme activity | inhibitor | 34 |
| PIK3CA (Homo sapiens, UniProt P42336, E542K) | enzyme activity | inhibitor | 45 |
| Tyrosine-protein kinase ABL1, non-phosphorylated (ABL1, Homo sapiens, UniProt P00519) | enzyme activity | inhibitor | 53 |
| SBK3 (Homo sapiens, UniProt P0C264) | enzyme activity | inhibitor | 0 |
| NEK5 (Homo sapiens, UniProt Q6P3R8) | enzyme activity | inhibitor | 4 |
| DAPK2 (Homo sapiens, UniProt Q9UIK4) | enzyme activity | inhibitor | 0 |
| TLK1 (Homo sapiens, UniProt Q9UKI8) | enzyme activity | inhibitor | 13 |
| IKBKB (Homo sapiens, UniProt O14920) | enzyme activity | inhibitor | 8 |
| Tyrosine-protein kinase ABL1, non-phosphorylated (ABL1, Homo sapiens, UniProt P00519, T315I) | enzyme activity | inhibitor | 18 |
| EPHA5 (Homo sapiens, UniProt P54756) | cell-free assay | – | 5 |
| Tyrosine-protein kinase JAK1, JH1 kinase domain (JAK1, Homo sapiens, UniProt P23458) | – | inhibitor | 2 |
| CDK14 (Homo sapiens, UniProt O94921) | enzyme activity | inhibitor | 6 |
| CSNK1G2 (Homo sapiens, UniProt P78368) | enzyme activity | inhibitor | 22 |

Set 3
SMILES: CCCCN(CCCC)C(=O)CN1C[C@H](c2cc(OC)c3c(c2)OCO3)[C@@H](C(=O)O)[C@@H]1CC(C)(C)CCC
Effect on: binding
Method: radioligand binding
Tested at: 10 µM
| target | inhibition |
| --- | --- |
| TMEM97 (Homo sapiens, UniProt Q5BJF2) | 48.4% |
| ADRA1A (Homo sapiens, UniProt P35348) | -2.13% |
| DRD2 (Homo sapiens, UniProt P14416) | 21.3% |
| HRH3 (Homo sapiens, UniProt Q9Y5N1) | -3.57% |
| DRD3 (Homo sapiens, UniProt P35462) | 17.3% |
| CHRM5 (Homo sapiens, UniProt P08912) | -13.8% |
| SIGMAR1 (Homo sapiens, UniProt Q99720) | 29.6% |
| ADRA2A (Homo sapiens, UniProt P08913) | -17.1% |
| HTR2B (Homo sapiens, UniProt P41595) | -9.89% |
| ADRB1 (Homo sapiens, UniProt P08588) | -6.6% |
| DRD4 (Homo sapiens, UniProt P21917) | 21.7% |
| HTR6 (Homo sapiens, UniProt P50406) | -11.4% |
| ADRB2 (Homo sapiens, UniProt P07550) | -10.5% |

Set 4
Target: NUAK family SNF1-like kinase 2 (NUAK2, Homo sapiens, UniProt Q9H093)
UniProt Q9H093, sequence (whole entry, looked up): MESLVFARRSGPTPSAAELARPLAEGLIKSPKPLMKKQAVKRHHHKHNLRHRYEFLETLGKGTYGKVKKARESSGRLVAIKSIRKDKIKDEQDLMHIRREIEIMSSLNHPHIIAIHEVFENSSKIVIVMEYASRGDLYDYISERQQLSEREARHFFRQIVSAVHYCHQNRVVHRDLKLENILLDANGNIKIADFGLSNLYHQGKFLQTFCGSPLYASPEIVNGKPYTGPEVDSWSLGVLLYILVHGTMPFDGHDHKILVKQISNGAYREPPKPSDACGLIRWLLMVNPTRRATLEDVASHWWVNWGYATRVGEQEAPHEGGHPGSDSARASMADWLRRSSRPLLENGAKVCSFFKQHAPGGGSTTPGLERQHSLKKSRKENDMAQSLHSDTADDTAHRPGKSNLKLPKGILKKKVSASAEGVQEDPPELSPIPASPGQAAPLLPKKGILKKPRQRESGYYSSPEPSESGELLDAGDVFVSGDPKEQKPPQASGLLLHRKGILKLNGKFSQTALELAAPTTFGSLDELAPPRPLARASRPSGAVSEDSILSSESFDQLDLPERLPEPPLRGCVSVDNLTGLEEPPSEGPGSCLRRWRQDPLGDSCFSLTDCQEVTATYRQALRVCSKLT
Effect on: enzyme activity
Action: inhibitor
Tested at: 0.5 µM
Reference: control
| Structure (SMILES) | remaining activity [%] |
| --- | --- |
| N#CC(c1ccnc(NCCc2cccnc2)n1)c1nc2ccccc2s1 (stereo not shown) | 72.5 |
| NC(=O)c1ccc(-c2nc(-c3ccc4c(c3)OCCO4)c(-c3ccccn3)[nH]2)cc1 | 102 |
| FC(F)(F)c1ccc(/C=C/c2nc(COc3ccc(CCCCn4ccnn4)cc3)co2)cc1 | 101 |
| Nc1nc(Nc2ccc(S(N)(=O)=O)cc2)nn1C(=S)Nc1c(F)cccc1F | 9.73 |
| O=C1NC(=O)/C(=C/c2ccc3c(c2)OC(F)(F)O3)S1 | 74.8 |
| CC(C)n1cnc2c(Nc3cccc(Cl)c3)nc(NCCO)nc21 | 89.8 |
| NC(=O)c1cccc(-c2cc(Nc3ccc(OC(F)(F)F)cc3)ncn2)c1 | 87.8 |
| O=C(O)/C=C/c1cc(Br)c(Br)c(Br)c1Br | 98.9 |
| O=C1c2ccccc2-c2nc3nnnn3nc21 | 92.5 |
| O=c1c(-c2ccc(F)cc2)c(-c2ccncc2)[nH]n1-c1ccc(Cl)cc1 | 88.7 |
| C[C@@H](N)[C@H]1CC[C@H](C(=O)Nc2ccncc2)CC1 | 122 |
| COc1cc2c(Nc3ccc(Br)cc3F)ncnc2cc1OCC1CCN(C)CC1 | 100 |
| CC(C)N(CCC(=O)c1ccc2ccccc2c1)Cc1ccccc1 | 85.4 |
| CCN(CC)CCCCN1c2ccccc2Oc2ccc(Cl)cc21 | 90.9 |
| c1cc(-c2cnn3cc(-c4ccc(OCCN5CCCCC5)cc4)cnc23)ccn1 | 82 |
| N#C/C(=C(/N)SC1C=CC=CC1)c1cccc(C(O)c2ccncc2)c1 (stereo not shown) | 79.2 |
| CC(C)(C)c1nc2c3cc[nH]c(=O)c3c3cc(F)ccc3c2[nH]1 | 66 |
| O=C(c1ccccc1)c1ccc(N2CCOCC2)cc1O | 111 |
| CNc1cc2c(Nc3cccc(Br)c3)ncnc2cn1 | 85 |
| COc1cc2c(N3CCN(C(=O)Nc4ccc(OC(C)C)cc4)CC3)ncnc2cc1OCCCN1CCCCC1 | 100 |
| CCCCc1c(-c2ccc(O)cc2)[nH]c2nccnc12 | 64.8 |
| O=Nc1c(-c2c(O)[nH]c3ccccc23)[nH]c2ccccc12 | 72.5 |

Some of these lines once more (set 3):
| target | inhibition |
| --- | --- |
| ADRB1 (Homo sapiens, UniProt P08588) | -6.6% |
| DRD4 (Homo sapiens, UniProt P21917) | 21.7% |
| DRD3 (Homo sapiens, UniProt P35462) | 17.3% |
| ADRA2A (Homo sapiens, UniProt P08913) | -17.1% |
| HTR2B (Homo sapiens, UniProt P41595) | -9.89% |
